Measured values collected from several papers.
Parts stem from different laboratories: compare values within a part only.
Sequence of UniProt P41595 (whole entry, looked up): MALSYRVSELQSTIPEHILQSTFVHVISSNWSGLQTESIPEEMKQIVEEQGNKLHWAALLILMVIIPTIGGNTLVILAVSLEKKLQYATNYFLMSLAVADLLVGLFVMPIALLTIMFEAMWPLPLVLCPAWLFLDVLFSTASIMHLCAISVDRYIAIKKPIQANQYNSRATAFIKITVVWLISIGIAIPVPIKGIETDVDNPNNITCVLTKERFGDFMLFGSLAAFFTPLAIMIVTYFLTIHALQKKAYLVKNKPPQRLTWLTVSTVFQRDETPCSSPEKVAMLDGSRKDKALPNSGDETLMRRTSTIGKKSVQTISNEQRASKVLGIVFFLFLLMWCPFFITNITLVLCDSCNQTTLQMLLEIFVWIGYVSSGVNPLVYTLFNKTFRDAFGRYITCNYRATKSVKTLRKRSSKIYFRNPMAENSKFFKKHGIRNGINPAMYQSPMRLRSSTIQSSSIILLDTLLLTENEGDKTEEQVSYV

Set 1
Target: Ephrin type-B receptor 3 (EPHB3, Homo sapiens, UniProt P54753)
Sequence of UniProt P54753 (whole entry, looked up): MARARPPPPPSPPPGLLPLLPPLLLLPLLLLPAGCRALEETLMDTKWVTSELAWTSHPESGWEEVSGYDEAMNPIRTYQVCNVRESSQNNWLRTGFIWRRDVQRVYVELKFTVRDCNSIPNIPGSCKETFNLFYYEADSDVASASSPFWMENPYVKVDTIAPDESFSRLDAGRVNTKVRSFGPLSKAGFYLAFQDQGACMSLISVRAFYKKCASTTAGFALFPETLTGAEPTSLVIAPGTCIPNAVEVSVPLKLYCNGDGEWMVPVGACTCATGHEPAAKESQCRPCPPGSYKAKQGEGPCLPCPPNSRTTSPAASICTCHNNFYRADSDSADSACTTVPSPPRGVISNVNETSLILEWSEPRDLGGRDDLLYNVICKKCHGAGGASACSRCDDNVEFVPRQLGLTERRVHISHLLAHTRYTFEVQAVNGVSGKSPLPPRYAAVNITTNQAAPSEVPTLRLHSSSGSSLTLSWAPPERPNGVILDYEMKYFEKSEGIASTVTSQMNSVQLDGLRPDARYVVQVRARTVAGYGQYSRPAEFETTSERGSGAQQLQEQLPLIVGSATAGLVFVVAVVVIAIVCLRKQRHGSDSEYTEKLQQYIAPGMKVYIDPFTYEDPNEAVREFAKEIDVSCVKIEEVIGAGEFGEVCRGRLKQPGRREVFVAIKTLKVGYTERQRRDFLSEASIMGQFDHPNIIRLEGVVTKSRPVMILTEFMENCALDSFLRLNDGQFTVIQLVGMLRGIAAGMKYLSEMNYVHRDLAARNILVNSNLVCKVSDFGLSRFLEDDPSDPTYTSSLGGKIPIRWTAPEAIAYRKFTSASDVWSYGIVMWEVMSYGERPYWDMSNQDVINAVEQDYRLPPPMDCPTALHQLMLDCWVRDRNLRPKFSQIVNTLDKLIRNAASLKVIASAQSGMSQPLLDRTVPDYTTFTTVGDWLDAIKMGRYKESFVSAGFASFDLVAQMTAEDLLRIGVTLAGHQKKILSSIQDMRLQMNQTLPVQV
Effect on: enzyme activity
Action: inhibitor
Tested at: 0.5 µM
Baseline: control
Compound	remaining activity
COc1ccc(C(=O)Nc2sc3c(c2C(N)=O)CCCC3)cc1OC	92.4%
O=C(CCCc1ccc(-c2ccccc2F)cc1)Nc1ccc(O)cc1	96.5%
CN(C)c1ccc(C=C2C(=O)Nc3ccccc32)cc1	94.9%
COc1cc2ncnc(Nc3ccc(Oc4ccccc4)cc3)c2cc1OC	103%
O=C1NC(=O)C(c2cn(CCCn3ccnc3)c3ccccc23)=C1Nc1ccccc1	99.7%
CC(C)[C@H](CO)Nc1nc(Nc2cc(N)cc(Cl)c2)c2ncn(C(C)C)c2n1	95.3%
Cn1c2ccccc2c2c3c(c4c5ccccc5n(CCC#N)c4c21)CNC3=O	87.2%
Cc1nc(-c2ccccc2)c(-c2ccncc2)o1	99.2%
N#CC(C#N)=C(N)/C(C#N)=C/c1ccc(O)cc1	99.5%
Cn1sc(=O)n(Cc2ccccc2)c1=O	91.3%
NCCNc1ncc(C(N)=O)c(Nc2cccc(C(F)(F)F)c2)n1	95.4%
O=S(=O)(c1cccc2cnccc12)N1CCCNCC1	95.4%
COc1cc2nccc(Oc3ccc(NC(=S)NC(=O)c4ccccc4C)cc3)c2cc1OC	95.7%
O=C1NC(=O)C(c2cn(CCCO)c3ncccc23)=C1c1cnccn1	86.6%

Set 2
Structure (SMILES): CC(C)n1cnc(-c2ccc(F)cc2)c1-c1ncc(C(=O)Nc2ccc(N3CCN(C)CC3)cc2)[nH]1
Method: phase 2a clinical trial
Host: patients with idiopathic pulmonary fibrosis
conditions	patients with liver injury
30 mg once daily, added: standard of care	0%
30 mg once daily, without standard of care	0%
60 mg once daily, without standard of care	0%

Set 3
Effect on: AlphaScreen signal
Method: AlphaScreen counter screen
Matrix: His6 peptide without bromodomain
Tested at: 50 µM
Setting: assay interference check
SMILES	inhibition
O=C(O)c1cc(N=Nc2ccc(S(=O)(=O)Nc3ccccn3)cc2)ccc1O	11.9%
N#CCCc1ccc2c(c1)-c1[nH]c3ccc([N+](=O)[O-])cc3c1CC(=O)N2	8.45%
CCCOc1ccc(C=C2SC(=O)N(CCN)C2=O)cc1	26.5%
COC(=O)C(C)Sc1ccc2nnc(-c3cccc(F)c3)n2n1 (stereo not drawn)	9.9%

Set 4
Cell line: A-375
Tested at: 100 µM
Time: 36 h
Compound	viability
CCOc1ccccc1O[C@H](c1ccccc1)[C@H]1CNCCO1 (racemic)	102%
CCN(CC)Cc1cc(Nc2ccnc3cc(Cl)ccc23)ccc1O	14.8%
Cc1ncc(CSSCc2cnc(C)c(O)c2CO)c(CO)c1O	108%

Set 5
Cell line: mouse MPNST tumor cells
Method: high-content immunofluorescence imaging
Refers to: nuclear SOX9
Tested at: 10 µM
Time: 12 h
Setting: mean of 2 replicates
Baseline: DMSO control
Reading: higher = more nuclear SOX9
SMILES	nuclear SOX9 intensity
COc1cc(OC)c(NC(=O)Nc2cc(C)on2)cc1Cl	106 % of DMSO
O=C(NCc1ccc(F)cc1)C1CCN(S(=O)(=O)c2cc(Cl)cc(Cl)c2)CC1	100 % of DMSO
CN1CCN(CC/C=C2/c3ccccc3Sc3ccc(S(=O)(=O)N(C)C)cc32)CC1	216 % of DMSO

Mixed results
SMILES	tested on	test	test system	conditions	quantity	result
COc1cc(=O)[nH]cc1C(=O)NCCc1cn(C)c2cc(C)ccc12	–	–	mouse, microsomes or S9	2 µM, 0.5 h	remaining compound	1.63%
C[C@H](NC(=O)c1cnc2n1[C@](C)(Cc1ccc(C#N)cc1)C(=O)N2c1cc(Cl)c(F)c(Cl)c1)C(=O)NC1(c2ccccn2)CC1	HTR2B (Homo sapiens, UniProt P41595)	binding, radioligand binding	–	10 µM	inhibition	17.2%
COc1nc(C)cc(C)c1-c1nc2c([nH]1)CC(C)(C)CNC2=O	–	–	mouse, microsomes or S9	2 µM, 0.5 h	remaining compound	78.4%

For quick reference, copied from above (set 1):
Compound	remaining activity
O=S(=O)(c1cccc2cnccc12)N1CCCNCC1	95.4%
CC(C)[C@H](CO)Nc1nc(Nc2cc(N)cc(Cl)c2)c2ncn(C(C)C)c2n1	95.3%
NCCNc1ncc(C(N)=O)c(Nc2cccc(C(F)(F)F)c2)n1	95.4%
Cn1c2ccccc2c2c3c(c4c5ccccc5n(CCC#N)c4c21)CNC3=O	87.2%
